Measured values pooled from the literature.
Protocols differ between the studies behind these lines. ± gives the spread as reported.

SMILES | test | test system | conditions | scale | Cmax
NC1(C(=O)N[C@@H](CCO)c2ccc(Cl)cc2)CCN(c2nc[nH]c3nccc2-3)CC1 | – | human patients, plasma | dose not given, cohort 160/400, cycle 2, geometric mean | – | 522 ng/mL
C=CC(=O)N1CCC[C@@H](n2c(=O)n(-c3ccc(Oc4ccccc4)cc3)c3c(N)nccc32)C1 | – | human, fed, plasma | oral, 300 mg, geometric mean | – | 83.5 ng/mL
Nc1ccn([C@@H]2O[C@H](CO)[C@@H](O)C2(F)F)c(=O)n1 | – | human, plasma | intravenous, dose not given, mean, after paricalcitol | – | 16000 ng/mL
CN(CC#N)C(=O)C[C@H](Nc1nc2ccccc2[nH]1)c1cccc(C(F)(F)F)c1 | – | human | intravenous infusion, 1.5 mg/kg, 1 mg/mL formulation | – | 4480 ± 814 ng/mL
Cc1cc(Nc2ccc(S(F)(F)(F)(F)F)cc2)n2nc(C(C)(F)F)nc2n1 | LC-MS/MS | human vivax malaria patients, plasma | oral, 800 mg, mean | – | 10100 ng/mL
N[C@@H](CC(=O)N1CCn2c(nnc2C(F)(F)F)C1)Cc1cc(F)c(F)cc1F | – | female human, plasma | oral, 100 mg single dose | – | 499 ± 128 ng/mL
NCCCS(=O)(=O)O | – | human, plasma | oral, 340 mg once daily, day 14, capsule, fasted, dosed days 8-14 | – | 1480 ng/mL
C[C@]12C=CC(=O)C=C1CC[C@@H]1[C@@H]2[C@@H](O)C[C@@]2(C)[C@H]1CC[C@]2(O)C(=O)CO | – | human | oral, dose not given | – | 341 ng/mL
Nc1ccc(-c2nc([C@H]3CCc4cc(-c5cc(Cl)ccc5-n5cnnn5)cc(=O)n43)c(F)[nH]2)c(F)n1 | – | human, plasma | oral, 150 mg once daily, day 1 | – | 1060 ng/mL
CC(C)(Sc1ccncc1-c1ccc(C#N)c2ccccc12)C(=O)O | – | human, plasma | oral, 10 mg once daily, with: febuxostat 20 mg | – | 29.5 ng/mL
C[C@H](CCC(=O)NCC(=O)O)[C@H]1CC[C@H]2[C@@H]3CC[C@@H]4C[C@H](O)CC[C@]4(C)[C@H]3C[C@H](O)[C@]12C | – | human, plasma | oral, dose not given | reference: untreated | 840 ± 193 nM
[H]/N=C(/N)c1ccc(NCc2nc3cc(C(=O)N(CCC(=O)O)c4ccccn4)ccc3n2C)cc1 | – | healthy humans, plasma | oral, 75 mg, alone, geometric mean | – | 49.8 ng/mL
Cn1cc(-c2ccc(S(=O)(=O)[C@@H]3C[C@@H](C(=O)NC4(C#N)CC4)N(C(=O)C4(C(F)(F)F)CC4)C3)c(C(F)(F)F)c2)cn1 | noncompartmental | human, both sexes, plasma | oral, 100 mg once daily, day 1, with food, single dose | – | 865 ng/mL
CCO | – | human, breath | 0.5 g/kg, with: placebo | – | 66.5 ± 11.4 mg/100 mL
CNC(=O)c1ccccc1Sc1ccc2c(/C=C/c3ccccn3)n[nH]c2c1 | – | human, normal hepatic function (Child-Pugh), plasma | single dose, geometric mean, total drug | – | 30.4 ng/mL
CCNCCCNC/C=C\CNCCCNCC | LC-MS/MS | human cancer patients, plasma | intravenous infusion 60 min, 150 mg, median, cycle 1 | – | 512 ng/mL
CCS(=O)(=O)Nc1ccc(Oc2ccc(F)cc2F)c(-c2cn(C)c(=O)c3[nH]ccc23)c1 | – | human, plasma | oral, 2 mg, cycle 1 day 8, geometric mean | – | 19.9 ng/mL
Cc1cc(-c2nnc(N)nc2-c2ccc(F)cc2)cc(Cl)n1 | – | human patients, plasma | oral, 200 mg capsule once daily, multiple doses, arithmetic mean | – | 1110 ng/mL
C=CC(=O)N(C)CCOc1c(N)ncnc1-c1cc(F)cc(NC(=O)c2ccc(C3CC3)cc2F)c1C | – | human, whole blood | oral, 1.5 mg, single ascending dose, fasted | – | 1.26 ng/mL
O=C(O)CCCCCCCCCCCCCCCCC(=O)O | – | human, plasma | concentration not given, endogenous baseline diurnal | – | 110 ± 9 nM
Cc1noc(C)c1-c1cc(C(O)(c2ccccn2)c2ccccn2)c2nc(C3CC3)[nH]c2c1 | – | human patients, plasma | oral, 4 mg, cycle 1 day 8, monotherapy | – | 407 ng/mL
CN(C)C(=O)c1cc2cnc(Nc3ccc(N4CCNCC4)cn3)nc2n1C1CCCC1 | – | human, severe renal impairment, plasma | oral, 400 mg, geometric mean | – | 538 ng/mL
C#C[C@]1(CO)O[C@@H](n2cnc3c(N)nc(F)nc32)C[C@@H]1O | – | human, fed, plasma | oral, 30 mg, geometric mean | – | 535 nM
COc1cc(Nc2ncc3c(n2)-c2ccc(Cl)cc2C(c2c(F)cccc2OC)=NC3)ccc1C(=O)O | – | human patients, plasma | oral, 40 mg, cycle 1 day 1, with: pembrolizumab | – | 688 ng/mL

SMILES | test | test system | conditions | scale | Cmax
Cc1cn(C(=O)c2c(-c3c(Cl)cc(Cl)cc3Cl)noc2C(C)(C)F)c2cccc(/C=C/C(=O)O)c12 | – | human patients | 125 mg bid, cycle 8 day 1 | – | 10400 ng/mL
N#C[C@H](C[C@@H]1CCCNC1=O)NC(=O)[C@H](CC1CC1)NC(=O)c1cc2cccc(Cl)c2[nH]1 | – | human, plasma | 225 mg twice daily, day 1 | – | 1870 ng/mL
N[C@@H]1c2cccnc2[C@H](OC(=O)N2CCC(n3c(=O)[nH]c4ncccc43)CC2)CC[C@H]1c1cccc(F)c1F | – | human, plasma | oral, dose not given, single dose, geometric LS mean, with: fluconazole | – | 953 ng/mL
C[C@@H](Cn1ccc(-c2ccc(C#N)c(Cl)c2)n1)NC(=O)c1cc([C@@H](C)O)[nH]n1 | – | human, fasted, plasma | oral, 300 mg 14C-darolutamide solution, geometric mean | – | 1800 ng/mL
COc1ccc2nc([S@@+]([O-])Cc3ncc(C)c(OC)c3C)[nH]c2c1 | – | human male, dried plasma spots | oral, 5 mg racemic omeprazole, with: rifampicin pretreatment | – | 10.8 nM
O=C(O)C[C@H](O)C[C@H](O)/C=C/c1c(C2CC2)nc2ccccc2c1-c1ccc(F)cc1 | – | OATP1B1/1B3 humanized mouse, plasma | oral, 5 mg/kg | – | 218 nM
C[C@H]1[C@@H](O)O[C@@H]2O[C@@]3(C)CC[C@H]4[C@H](C)CC[C@@H]1[C@@]24OO3 | – | human, both sexes, plasma | oral, dose not given, non-fixed combination | – | 745 ng/mL
C[C@H](CCC(=O)NCC(=O)O)[C@H]1CC[C@H]2[C@@H]3[C@H](O)C[C@@H]4C[C@H](O[C@@H]5O[C@H](C(=O)O)[C@@H](O)[C@H](O)[C@H]5O)CC[C@]4(C)[C@H]3CC[C@]12C | – | human, plasma | concentration not given, endogenous baseline diurnal | – | 79 ± 19.1 nM
CCOc1cc(CC(=O)N[C@@H](CC(C)C)c2ccccc2N2CCCCC2)ccc1C(=O)O | – | human, plasma | oral, dose not given, single dose alone, geometric mean | – | 20.6 ng/mL
CC(=O)O[C@@]12CO[C@@H]1C[C@H](O)[C@@]1(C)C(=O)[C@H](O)C3=C(C)[C@@H](OC(=O)[C@H](O)[C@@H](NC(=O)OC(C)(C)C)c4ccccc4)C[C@@](O)([C@@H](OC(=O)c4ccccc4)[C@H]21)C3(C)C | LC-MS | human, plasma | intravenous, 70 mg/m^2, infusion over 1 h, cycle 1, with another drug | – | 2500 nM
Cc1cc(C)c(CNC(=O)c2cc(Cl)c3c(c2C)O[C@@](C)([C@H]2CC[C@H](N(C)C)CC2)O3)c(=O)[nH]1 | geometric LS mean | healthy male humans, plasma | oral, dose not given, with: itraconazole | – | 307 ng/mL
C[C@H]1CN(C(=O)CC#N)[C@]12CCN(c1ncnc3[nH]ccc13)C2 | – | healthy human, plasma | oral, 6 mg single, mean | – | 54.8 ng/mL
COc1cc(Nc2c(C#N)cnc3cc(OCCCN4CCN(C)CC4)c(OC)cc23)c(Cl)cc1Cl | – | human, moderate hepatic impairment (Child-Pugh), plasma | single dose, geometric mean, total drug | – | 64.3 ng/mL
Cc1nc(-c2ccc(OCC(C)C)c(C#N)c2)sc1C(=O)O | – | human | oral, 10 mg once daily, with: verinurad 0 mg | – | 268 ng/mL
O=C(Nc1cnccc1Cl)N1CCN(Cc2ccc3c(c2)OC(F)(F)O3)CC1 | – | human healthy young men, plasma | oral, 75 mg once daily, day 1, multiple dose mean | – | 638 ng/mL
CO[C@H]1C[C@@H]2CC[C@@H](C)[C@@](O)(O2)C(=O)C(=O)N2CCCC[C@H]2C(=O)O[C@H]([C@H](C)C[C@@H]2CC[C@@H](OC(=O)NCCOCCOCCOCCOCCOCCOCCOCCOCCC(=O)N3CCc4cc(Cn5nc(-c6ccc7oc(N)nc7c6)c6c(N)ncnc65)ccc4C3)[C@H](OC)C2)C[C@@H](O)[C@H](C)/C=C(\C)[C@@H](O)[C@@H](OC)C(=O)[C@H](C)C[C@H](C)/C=C/C=C/C=C/1C | – | human patients, plasma | intravenous, 10 mg, cycle 1 day 15, 2 h infusion | – | 322 ng/mL
CCO | gas chromatography | human, plasma | 0.5 g/kg, alone, with placebo tablets | – | 743000 ± 113000 ng/mL
COc1cc(N2CCC(N3CCN(C)CC3)CC2)ccc1Nc1ncnc(Nc2ccccc2S(=O)(=O)C(C)C)n1 | – | human, plasma | oral, 200 mg, day 28 | – | 667 ng/mL
Cc1cc(Nc2cc3ncccc3c(N[C@@H]3C[C@H]4CC[C@@H](C3)N4CCC#N)n2)n[nH]1 | – | human, plasma | 20 mg, day 14, geometric mean | – | 0.141 ng/mL
O=C(O)CCCCCCCCCCCCCCC(=O)O | – | human, plasma | concentration not given, endogenous baseline diurnal | – | 269 ± 42 nM
C=CC(=O)NC1CCN(c2ncc3ncnc(Nc4ccc(Oc5ccc6c(c5)ncn6C)c(C)c4)c3n2)CC1 | – | human, male, plasma | oral, 240 mg, fed, adjusted geometric mean | – | 4670 nM
CCn1cc(C(=O)N2CCOCC2)c(=O)c2cc(NC3Cc4ccccc4C3)cnc21 | – | human, fasted, plasma | oral, 900 mg single dose, tablet, arithmetic mean | – | 5190 ng/mL
NC(=O)c1[nH]cnc1N | – | human patients, plasma | IV infusion over 1 h, 1000 mg/m^2 DTIC, cycle 2 day 1, co-administered with co-drug | – | 1240 ng/mL
O=C(COc1ccc(Cl)cc1)NC12CC(c3nnc([C@H]4C[C@@H](OC(F)(F)F)C4)o3)(C1)C2 | – | healthy human volunteers fasted, plasma | oral, 45 mg single dose, arithmetic mean | – | 535 nM

Excerpt of the above:
SMILES | test | test system | conditions | scale | Cmax
N#C[C@H](C[C@@H]1CCCNC1=O)NC(=O)[C@H](CC1CC1)NC(=O)c1cc2cccc(Cl)c2[nH]1 | – | human, plasma | 225 mg twice daily, day 1 | – | 1870 ng/mL
N[C@@H]1c2cccnc2[C@H](OC(=O)N2CCC(n3c(=O)[nH]c4ncccc43)CC2)CC[C@H]1c1cccc(F)c1F | – | human, plasma | oral, dose not given, single dose, geometric LS mean, with: fluconazole | – | 953 ng/mL
C[C@@H](Cn1ccc(-c2ccc(C#N)c(Cl)c2)n1)NC(=O)c1cc([C@@H](C)O)[nH]n1 | – | human, fasted, plasma | oral, 300 mg 14C-darolutamide solution, geometric mean | – | 1800 ng/mL
COc1ccc2nc([S@@+]([O-])Cc3ncc(C)c(OC)c3C)[nH]c2c1 | – | human male, dried plasma spots | oral, 5 mg racemic omeprazole, with: rifampicin pretreatment | – | 10.8 nM
O=C(O)C[C@H](O)C[C@H](O)/C=C/c1c(C2CC2)nc2ccccc2c1-c1ccc(F)cc1 | – | OATP1B1/1B3 humanized mouse, plasma | oral, 5 mg/kg | – | 218 nM
